Measurements from different studies.
A part holds a random share of what one study measured. Substitutions count along the parent as printed.

Sample 1 — target: CCNA1, cyclin fold, Cln2 fusion (human); method: yeast growth competition, sequencing; sample: yeast; notes: weak parent motif; reference: not given; direction: higher = stronger binding
Parent: SCAPER docking peptide (human); SNARRSLNFGGST
Substitution | normalised enrichment score
L7A | 0.685
A3V | 0.337
S12M | 0.273
N8I | 0.755
R5W | 0.115
S12I | 0.733
N2I | 0.437
N2R | 0.649
S12G | 0.632
G10L | 0.366
S6F | 0.76
N2T | 0.693
S12Y | 0.373
N2F | 0.769
R5L | 0.315
R4E | -0.0249
S6L | 0.379
G11P | 0.624
S1A | 0.813
R4I | 0.387
N2D | 0.412
S1D | 0.437
G10W | 0.423
L7Q | 0.607
N8K | 0.516

Sample 2 — method: DHFR PCA, deep sequencing; sample: yeast; added: (+)-ABA 0 µM; reference: wild-type fitted maximum; direction: higher = stronger binding
Target: ABI1, truncated, D143A, DHFR fusion (Arabidopsis thaliana)
Notes: methotrexate growth selection, single substitutions
Parent: PYL1, truncated, DHFR fusion (Arabidopsis thaliana); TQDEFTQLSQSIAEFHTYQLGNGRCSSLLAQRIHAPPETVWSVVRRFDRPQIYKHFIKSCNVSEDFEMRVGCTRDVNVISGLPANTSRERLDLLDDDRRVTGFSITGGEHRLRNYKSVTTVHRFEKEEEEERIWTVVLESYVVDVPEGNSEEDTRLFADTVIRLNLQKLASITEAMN; partner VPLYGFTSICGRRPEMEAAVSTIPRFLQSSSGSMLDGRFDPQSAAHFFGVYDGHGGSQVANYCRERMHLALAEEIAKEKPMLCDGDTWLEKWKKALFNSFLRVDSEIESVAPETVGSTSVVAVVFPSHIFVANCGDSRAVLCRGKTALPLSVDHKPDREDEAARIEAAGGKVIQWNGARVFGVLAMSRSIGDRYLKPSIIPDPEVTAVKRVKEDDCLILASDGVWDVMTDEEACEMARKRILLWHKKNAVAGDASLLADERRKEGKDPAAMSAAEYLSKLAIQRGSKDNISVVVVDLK
Substitution | relative binding score [%]
R132N | 24.7
I105P | -4.89
G81V | 0.896
Y18K | -1.04
S104A | 0.838
E67N | 11.8
H34T | -2.71
D92W | 1.37
S27D | -4.24
K126V | 34.8
R49G | 1.54

Sample 3 — method: EMSA with sequencing; molecule type: double-stranded DNA, one strand shown; sample: in vitro; tested at: 10 and 20 nM; reference: negative control set to 0; direction: higher = stronger binding
Target: Hepatocyte nuclear factor 3-alpha (Foxa1, Mus musculus, UniProt P35582, residues 1-468, full length assumed)
Sequence of UniProt P35582 (whole entry, looked up): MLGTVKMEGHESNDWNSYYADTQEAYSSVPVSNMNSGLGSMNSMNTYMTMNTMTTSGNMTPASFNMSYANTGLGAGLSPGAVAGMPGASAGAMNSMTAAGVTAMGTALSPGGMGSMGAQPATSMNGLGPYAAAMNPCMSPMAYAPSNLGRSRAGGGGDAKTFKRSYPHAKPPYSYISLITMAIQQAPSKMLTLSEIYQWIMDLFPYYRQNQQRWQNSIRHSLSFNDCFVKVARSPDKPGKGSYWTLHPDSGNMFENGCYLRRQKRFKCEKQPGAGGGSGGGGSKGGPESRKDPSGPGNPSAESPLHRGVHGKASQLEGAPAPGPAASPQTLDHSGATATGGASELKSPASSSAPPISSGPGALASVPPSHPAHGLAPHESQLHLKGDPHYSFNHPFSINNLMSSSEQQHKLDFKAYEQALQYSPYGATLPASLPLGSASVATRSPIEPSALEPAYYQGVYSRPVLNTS
Notes: whole designed probe, mean of two concentrations, ends assumed
Constant ends, left off below: GTGAGCGGTGCCCATTGATGGGGAAC … TTTCACTGGGATCGTGGGGAC
Strand | normalised bound fraction [ratio]
CCCTCATCCTGGGTGTCGGGGTGGGAGGTGTTCTCATCATGAATGGGAGGCGTACCCAGTGACTCACCAGCCTTTTTTTAACCAAACCAGAGTGTAAACAAATGGCTGTGTGTCACACCATAATCGACATAGCAAGATATGATACATGCCAGGAGAGAAAAAGAAAGTGCTGATGGAAAAATAATCTCATTAG | 0.309
TGTATCCATCTGGGCAGTATCTTCTCTGGGCCTGGCCTGTCATAGGTGCTTCAGGTTTCCCCATTTGAACCAGATACCAGTCGGGTTACCGGATGTTTGCTTAAAATGAGTCATAAGGCTTCCTGCTTTCCTGTGCTGCTTCCAGCTAGGACTGATCGAATCAGTCTGGATTTTCCTTGGGGTGATCCGCAGG | 0.139
TCCTCATTAAATTTCAAGTTTCCACAAAATAAGAAAAGAAACAACTAAAGAAGAAATTGTTGGAAGGCATGGAGCAAAGTGTAAGAACAACTAAGTAAACATGTACATTTTGCATTTTTAAAAAATTCAGTGGCCATAATACCACTGGCCAACAGGCTGATCAAATAATCCCTGAAACAAAGAGTTATATGTT | 0.442
ATTCTTGGGGGTGCGCTGATTCCAGGCTCTCGCCCCAGCTTTGGGCCCAGGGCAGTGAGCATGTGTAGTTACTTATCTAGGATTGCAACCTGAGTCAACAGTGAAACCAGGAAGTGAACTCGGGGTCCGGCATTGTATGGAAAGTTGGGTGTATTTACTTTTCTCTTAAAGCAAACTTTGATTGACTCTTTAA | 0.472
TTAACATATCCTTACAATCAGTTTTACTTATAGAGATTTTTAGGATGACAGGGTGACCGAATTGTTGTGTTAGGTAAAATAAAGTCCATCTTGATGTTTACTCTGAATTTTAAAAAATATATTGAAACTTCACTCATGAAATAGTTGTTAATGATTTCCTATTCACTCTGAGAGATGTATCTATGTCAGTCAT | 0.156
CAAGTTTGTGGTCCAGGAGCAACAGGTTATGCCATACAGCCTAGGTGTGTAGTAGGCTACACACCGTCTATGTTTGTGTTGTACACTCTACAATGTTTGCACAATGATGAAATCCCATGTCACATTTCTCAGAACATACCCCTGTTGTTAAGCGATACATGACTGTACTTTTTTTAAAAAGTCCAAGGATATA | 0.477

Sample 4 — method: RNA Bind-n-Seq; molecule type: RNA; sample: in vitro; tested at: 365 nM; reference: no-protein control; direction: higher = stronger binding
Target: RNA binding protein fox-1 homolog 2, RRM domain, GST-SBP tag (RBFOX2, Homo sapiens, UniProt O43251-10, residues 100-194)
Notes: natural RNA segment, single round, ends assumed
Constant ends, left off below: GGGAGUUCUACAGUCCGACGAUC … UGGAAUUCUCGGGUGCCAA
Construct (chain): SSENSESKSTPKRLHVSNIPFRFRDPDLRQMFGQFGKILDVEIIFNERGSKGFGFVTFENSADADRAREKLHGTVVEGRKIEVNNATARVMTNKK
Strand | RBNS enrichment (R)
GGUGACCUCAGGGCCAGGCCCAUGGAUAACACCUGCUAUCCCUGCCCAGCGCCACGGGCCAGGAAGUACAAGUGUGGCCUGCCCCAGCCGUGUCCUGAGGAGCACCUGGC | 0.397
AUCUUUGGCUCCUUCUGUCUCAGAAUGAUGGGAAGCCUGACGGGGACCUGAGGAUUGAGGUCCUUGCUUUCUCCUGGUGGCCAUGGGACCUCAGAGGCAUUUUUGCCAAG | 0.311
GGUCUUGAGGGUUGACCAUGUUGCGUCAUCAUCAACAUUUUGGGGGUUGUGUUGGAUGGGAUGAUCUGUUGCAGAGGGAGAGGCAGGGAACCCUGCUCCUUCGGGCCCCA | 1.25
UUUCCUGAUCGAGAAACACGUGCUAAGAUUUCUAUGAAUUCUGCUUCUUUAUAGUUAAGUCUCUGUUUUCCAUGUUCUGUCAUUUAUAUAGGUCAAGGACAAGUGCCUUC | 0.844
UUGGGCCAAAAAUGCAGACUCAGGUUUUAGGUGUCUUACCACAUGGCUGCCCUGUGCAGGCUGUCAUCAGAGUUCUCCAUGUGGGUCAAUACCUGCACCCCCAGGAAGAG | 0.487
GCAAAAAGCAAGCUUUAGCUUGUCUUAUAGGAUGCUUAGUUUGCCACUACACUUCAGACCAAUGGGACAGUCAUAGAUGGUGUGACAGUGUUUAAACGCAACAAAAGGCU | 0.473
CUAGUCUCAAAGAUCAAGUUGGUCUGAGGAGCCGGAUGUGACUGUGGGUGUUGGCUGGGGCAUUAAAACUCAUCAUCGCCACCCAUCUCUGUCUCUCGUCACCCUGAUCU | 0.236
CGUUCUAGCUGUAUGCGUUCUGUAGUCUUUUCUUAGGUGGGUAACAUUUUCAAUAACGCGCGCACAGCACACAGGGGUGCCCUGAGCCGAAGGAGCAAAAAAAGCCACCG | 0.541
GACCUCUGCCUGCCUUGUGAGUACGACUUGUGGCACUUAGCAUGGUGUUCAACACACGAAAUGCUCAAUAAACAUCAGGCUGUCCCCUCCUGGGGCAGGCCUUGAAACGG | 2.67
UCAGCUCCUGCUGCCACCAACCCAGCCACUGUCUAGCACCCCUCCCCUGUCCCCACUCCCACCCCCUAGGGUCCUUGCUCCCAGUAUCUUCCUACAGGGAAGAAGAGCAA | 0.954
CCCAACUUCUCCCCGGCAGCUCUGCCUCCCUAAGUCUGUGAAGCCGCAGCCCUGCCCUGUCCUGUCCUGUCCUGACUUCAUCUCUCCUUCUGCCCAAGUCUGUGUCCCAU | 1.09
CAAAGAGAAUAACUUUGAACUGAGGGUGUGUAUCAGAGUAUGUACAUAUGUAAUAUACCCUUAUAUUAUGUAUGAGGGAUUUAAAAUAUUGAAAUGGUUUCCUAGUGGUA | 0.612

Some of these lines once more (sample 3):
Strand | normalised bound fraction [ratio]
TGTATCCATCTGGGCAGTATCTTCTCTGGGCCTGGCCTGTCATAGGTGCTTCAGGTTTCCCCATTTGAACCAGATACCAGTCGGGTTACCGGATGTTTGCTTAAAATGAGTCATAAGGCTTCCTGCTTTCCTGTGCTGCTTCCAGCTAGGACTGATCGAATCAGTCTGGATTTTCCTTGGGGTGATCCGCAGG | 0.139
TCCTCATTAAATTTCAAGTTTCCACAAAATAAGAAAAGAAACAACTAAAGAAGAAATTGTTGGAAGGCATGGAGCAAAGTGTAAGAACAACTAAGTAAACATGTACATTTTGCATTTTTAAAAAATTCAGTGGCCATAATACCACTGGCCAACAGGCTGATCAAATAATCCCTGAAACAAAGAGTTATATGTT | 0.442
ATTCTTGGGGGTGCGCTGATTCCAGGCTCTCGCCCCAGCTTTGGGCCCAGGGCAGTGAGCATGTGTAGTTACTTATCTAGGATTGCAACCTGAGTCAACAGTGAAACCAGGAAGTGAACTCGGGGTCCGGCATTGTATGGAAAGTTGGGTGTATTTACTTTTCTCTTAAAGCAAACTTTGATTGACTCTTTAA | 0.472
TTAACATATCCTTACAATCAGTTTTACTTATAGAGATTTTTAGGATGACAGGGTGACCGAATTGTTGTGTTAGGTAAAATAAAGTCCATCTTGATGTTTACTCTGAATTTTAAAAAATATATTGAAACTTCACTCATGAAATAGTTGTTAATGATTTCCTATTCACTCTGAGAGATGTATCTATGTCAGTCAT | 0.156
